Published values from different studies.
Each line is one published result; not all experiments were run side by side. Several values in a cell are separate wells, animals, samples, runs or records. Numbers after ± are the reported error.

O=C(O)C(Cl)Cl
IC50 (Leishmania infantum; infected macrophages; U-937 macrophages; 48 h): 2690 ± 1.58 µM

C[C@H]1N[C@@H](CCCCCCCCCCC2=C[C@@H](CCCCCCCCCC[C@H]3CC[C@@H](O)[C@@H](C)N3)[C@@H]3CCCN3C2)CC[C@H]1O
IC50 (Leishmania donovani; parasite growth, resazurin; 72 h, amastigote): 2 µg/mL

C/C(=C\Cc1c(O)c(Cl)c(C)c(C=O)c1O)CC/C=C(\C)[C@@H]1CC(=O)C(C)(C)O1
IC50 (Wickerhamomyces anomalus; O2 uptake, inhibitor; mitochondria; added: duroquinol 1 mM): 52 µM

ciclosporin
IC50 (hepatitis B virus; viral infection, ELISA, refers to: HBsAg secretion; HepaRG; 2 h pretreatment, 12 days): 1.17 ± 0.22 µM

CC[C@H](C)[C@H](NC(=O)[C@H](CCCNC(=N)N)NC(=O)[C@H](Cc1ccccc1)NC(=O)[C@H](Cc1c[nH]cn1)NC(=O)[C@@H](NC(=O)[C@H](Cc1ccccc1)NC(=O)[C@H](CC(C)C)NC(=O)[C@H](CC(C)C)NC(=O)[C@H](CCC(N)=O)NC(=O)[C@H](CCC(N)=O)NC(=O)[C@H](CC(C)C)NC(C)=O)[C@@H](C)CC)C(=O)NCC(=O)N[C@@H](CCCNC(=N)N)C(=O)N[C@@H](CCCNC(=N)N)C(=O)N[C@@H](CCCNC(=N)N)C(=O)N[C@@H](CCCNC(=N)N)C(=O)N[C@@H](CCCNC(=N)N)C(=O)N[C@@H](CCCNC(=N)N)C(=O)N[C@@H](CCCNC(=N)N)C(=O)N[C@@H](CCCNC(=N)N)C(N)=O
IC50 (HIV-1 JR-CSF (R5-tropic); viral replication, inhibitor, refers to: p24; NP2-CD4-CCR5; day 4): ~0.8 µM

O=[N+]([O-])c1ccc(CSc2ncnc3c2ncn3C2CC(CO)C(O)C2O)cc1 (stereo not drawn)
IC50 (Toxoplasma gondii; parasite growth, radiolabelled uracil incorporation; RH wild type, tissue culture): 43 µM and 42.8 µM

N#CSCCOc1ccc(Oc2ccccc2)cc1
IC50 (Toxoplasma gondii; tachyzoites): 4.8 ± 0.41 µM

CC(C)C[C@H](NC(=O)[C@H](CCc1ccccc1)NC(=O)CN1CCOCC1)C(=O)N[C@@H](Cc1ccccc1)C(=O)N[C@@H](CC(C)C)C(=O)[C@@]1(C)CO1
IC50 (Babesia divergens; parasite growth; bovine erythrocyte culture; 48 h, starting parasitemia 2%): 0.029 ± 0.01 µM

CC(=O)Nc1ccc2ccn(-c3cc(NCC4CCOC4)n4ncc(C#N)c4n3)c2c1 (stereo not drawn)
IC50 (murine hepatitis virus; viral replication, nanoluciferase reporter; DBT; 10 h): 0.631 µM

COC(=O)C1OC1c1cc(OC)c(O)c(OC)c1 (stereo not drawn)
IC50 (human rhinovirus 2; cytopathic effect; HeLa; 72 h): inactive

CO/C(=C/C(N)=O)[C@H](C)[C@H](/C=C/c1csc(-c2csc([C@@H](C)/C=C/C=C/C(C)C)n2)n1)OC
IC50 (Plasmodium yoelii; oxygen consumption; 17XL): 0.2 µM

CSCC[C@H](NC(=O)[C@H](CCCCN)NC(=O)[C@H](CCCCN)NC(=O)[C@@H](NC(=O)[C@H](CCCCN)NC(=O)[C@H](CC(=O)O)NC(=O)[C@H](Cc1c[nH]c2ccccc12)NC(=O)[C@H](CC(C)C)NC(=O)[C@H](CCC(=O)O)NC(=O)[C@H](CCCCN)NC(=O)[C@@H](NC(=O)[C@@H](N)Cc1ccccc1)C(C)C)C(C)C)C(=O)NCC(=O)N[C@@H](CO)C(=O)N[C@@H](C)C(=O)N[C@@H](C)C(=O)N[C@@H](Cc1c[nH]c2ccccc12)C(=O)N[C@@H](CO)C(=O)N[C@@H](C)C(=O)N[C@@H](C)C(=O)N[C@@H](CCCCN)C(=O)NCC(=O)N[C@@H](C)C(=O)N[C@@H](Cc1ccccc1)C(=O)N[C@@H](C)C(=O)O
IC50 (Haemonchus contortus; larval development; Kirby isolate; 6 days, 26 °C): 23 to 38 µM and 23.2 µM

CC(=O)Nc1ccc2ccn(-c3cc(NC4CCN(C)CC4)n4ncc(C#N)c4n3)c2c1
IC50 (murine hepatitis virus; viral replication, nanoluciferase reporter; DBT; 10 h): 3.16 µM

[N-]=[N+]=[N-]
IC50 (Plasmodium yoelii; oxygen consumption; 17XL): 810 µM

O=C(Nc1ccc(Cl)cc1)N1CCCC1c1nc(-c2ccccc2)no1 (stereo not drawn)
IC50 (Ancylostoma ceylanicum; adults): 3 to 50 µM

CC1=CC=CC[C@H](C)NC(=O)C=CC=CC=C[C@H](C)[C@@H](O)[C@H](O)[C@@H](O)C[C@@H](O)/C=C\C=CC(C)=C1
IC50 (Trypanosoma brucei brucei; parasite growth): < 10 µM

CO/C(=C/C(N)=O)[C@H](C)[C@H](/C=C/c1csc(-c2csc([C@@H](C)/C=C/C=C/C(C)C)n2)n1)OC
IC50 (Wickerhamomyces anomalus; O2 uptake, inhibitor; mitochondria; added: glycerol 3-phosphate 20 mM): 0.067 µM

[Cl-].[Cl-].[Cl-].[Cl-].[O]=[V+2].[O]=[V+2].c1cc(CN2CCCNCCNCCCNCC2)ccc1CN1CCCNCCNCCCNCC1
IC50 (HIV-2; viral cytopathicity; MT4, ROD): 0.142 µM and 0.236 µM

CC(=O)Nc1ccc2ccn(-c3cc(NCc4cnn(C)c4)n4ncc(C#N)c4n3)c2c1
IC50 (murine hepatitis virus; viral replication, nanoluciferase reporter; DBT; 10 h): 3.16 µM

OCC1CC(n2cnc3c(SCc4ccc(Br)cc4)ncnc32)C(O)C1O (stereo not drawn)
IC50 (Toxoplasma gondii; parasite growth, radiolabelled uracil incorporation; RH wild type, tissue culture): 18.3 ± 1.3 µM

CC(=O)Nc1ccc2ccn(-c3cc(NC45CC(C4)C5)n4ncc(C#N)c4n3)c2c1
IC50 (murine hepatitis virus; viral replication, nanoluciferase reporter; DBT; 10 h): 6.31 µM

O=Cc1cn(Cc2ccc(F)cc2)c2ccc([N+](=O)[O-])cc12
IC50 (Trypanosoma congolense; trypomastigotes, IL3000): > 84 µM

CC(C)c1cc2c(cc1O)[C@@]1(C)CCCC(C)(C)[C@@H]1[C@@H](O)C2=O
IC50 (Leishmania amazonensis; parasite growth; mouse Peritoneal macrophage; 72 h, intracellular, amastigote): 5.4 µg/mL

CCC(=O)Nc1cc(Nc2cc(NC3CC3)n3ncc(C#N)c3n2)ccc1N(C)CCN1CCCCC1
IC50 (murine hepatitis virus; viral replication, nanoluciferase reporter; DBT; 10 h): 2 µM

O=c1[nH]cc(F)c(=O)[nH]1
IC50 (human papillomavirus 16; pseudovirus infection, inhibitor; 293FT; pseudovirus): 0.4 µM

N=C(N)N[C@@H]1Cc2ccccc2[C@H]1NC(=O)C(=O)Nc1ccc(Cl)c(F)c1
IC50 (HIV-1 YU2; viral infection; Cf2Th-CD4/CCR5): 22.9 µM

CN1CCN2CCN(CC1)CCN(Cc1ccccc1)CC2
IC50 (Leishmania donovani; parasite growth, resazurin; 72 h, promastigote): > 20 µM

O=Cc1cn(Cc2cccc(Cl)c2)c2ccc([N+](=O)[O-])cc12
IC50 (Leishmania donovani; parasite growth, resazurin; THP-1; 72 h, intracellular, amastigote): > 10 µM

CC(C)c1cc2c(c(O)c1O)[C@@]1(C)CCCC(C)(C)C1=C(O)C2=O
IC50 (Leishmania amazonensis; parasite growth; mouse Peritoneal macrophage; 72 h, intracellular, amastigote): 4.3 µg/mL

Cc1ccc(Cn2cc(C=O)c3cc([N+](=O)[O-])ccc32)cc1
IC50 (Trypanosoma equiperdum; trypomastigotes, IVM-t1): > 85 µM

C/C=C1/C[N+]2(C)CC[C@@]34C[C@H]5[C@@H]6C[C@H]7c8c(c9ccccc9n8C)C[C@@H]([C@@H]6CO[C@@]5(C)O[C@@]35[C@@H]2C[C@@H]1[C@@H](C(=O)OC)N5c1ccccc14)N7C (stereo partly drawn)
IC50 (Leishmania mexicana; parasite growth, flow cytometry; promastigote): 78 µM

CC(=O)Nc1ccc2ccn(-c3cc(NCC4CCOCC4)n4ncc(C#N)c4n3)c2c1
IC50 (murine hepatitis virus; viral replication, nanoluciferase reporter; DBT; 10 h): 1 µM

O=Cc1cn(Cc2ccccc2)c2ccc([N+](=O)[O-])cc12
IC50 (Leishmania major; parasite growth, resazurin; promastigote): > 100 µM

CC[C@H](C)[C@H](NC(=O)[C@H](C)NC(=O)[C@H](C)NC(=O)[C@H](CC(N)=O)NC(=O)[C@H](C)NC(=O)[C@H](C)NC(=O)[C@H](C)NC(=O)[C@H](CCCNC(=N)N)NC(=O)[C@H](CC(C)C)NC(=O)[C@@H](NC(=O)[C@H](CCC(=O)O)NC(=O)[C@@H]1CCCN1C(=O)CNC(=O)[C@H](CCCCN)NC(=O)[C@H](CCC(=O)O)NC(=O)[C@H](CCCCN)NC(=O)[C@@H](NC(=O)[C@H](Cc1ccccc1)NC(=O)[C@H](CC(=O)O)NC(=O)[C@H](CCCCN)NC(=O)[C@H](C)NC(=O)[C@H](CCCCN)NC(=O)[C@H](CC(N)=O)NC(=O)[C@H](CC(C)C)NC(=O)[C@H](Cc1c[nH]c2ccccc12)NC(=O)[C@H](CC(=O)O)NC(=O)[C@H](CCCCN)NC(=O)[C@H](Cc1c[nH]c2ccccc12)NC(=O)CN)[C@@H](C)CC)[C@@H](C)CC)C(=O)N[C@@H](CC(N)=O)C(=O)O
IC50 (Haemonchus contortus; larval development; Kirby isolate; 6 days, 26 °C): 5.6 µM and < 6 µM

Cc1ccccc1CSc1ncnc2c1ncn2C1CC(CO)C(O)C1O (stereo not drawn)
IC50 (Toxoplasma gondii; parasite growth, radiolabelled uracil incorporation; RH wild type, tissue culture): 19.7 ± 2.8 µM

CCCC[C@H]1C(=O)O[C@H](C)[C@H](NC(=O)c2cccc(NC=O)c2O)C(=O)O[C@@H](C)[C@@H]1OC(=O)CC(C)C
IC50 (Wickerhamomyces anomalus; O2 uptake, inhibitor; mitochondria; added: NADH 1 mM): 0.021 µM

Repeated from above:
Cc1ccc(Cn2cc(C=O)c3cc([N+](=O)[O-])ccc32)cc1
IC50 (Trypanosoma equiperdum; trypomastigotes, IVM-t1): > 85 µM

CCCC[C@H]1C(=O)O[C@H](C)[C@H](NC(=O)c2cccc(NC=O)c2O)C(=O)O[C@@H](C)[C@@H]1OC(=O)CC(C)C
IC50 (Wickerhamomyces anomalus; O2 uptake, inhibitor; mitochondria; added: NADH 1 mM): 0.021 µM

O=C(Nc1ccc(Cl)cc1)N1CCCC1c1nc(-c2ccccc2)no1 (stereo not drawn)
IC50 (Ancylostoma ceylanicum; adults): 3 to 50 µM

CC1=CC=CC[C@H](C)NC(=O)C=CC=CC=C[C@H](C)[C@@H](O)[C@H](O)[C@@H](O)C[C@@H](O)/C=C\C=CC(C)=C1
IC50 (Trypanosoma brucei brucei; parasite growth): < 10 µM

[Cl-].[Cl-].[Cl-].[Cl-].[O]=[V+2].[O]=[V+2].c1cc(CN2CCCNCCNCCCNCC2)ccc1CN1CCCNCCNCCCNCC1
IC50 (HIV-2; viral cytopathicity; MT4, ROD): 0.142 µM and 0.236 µM

O=[N+]([O-])c1ccc(CSc2ncnc3c2ncn3C2CC(CO)C(O)C2O)cc1 (stereo not drawn)
IC50 (Toxoplasma gondii; parasite growth, radiolabelled uracil incorporation; RH wild type, tissue culture): 43 µM and 42.8 µM
